# Published values collected from several papers.
# Parts stem from different laboratories: compare values within a part only.
# Sequence of UniProt P49137 (whole entry, looked up): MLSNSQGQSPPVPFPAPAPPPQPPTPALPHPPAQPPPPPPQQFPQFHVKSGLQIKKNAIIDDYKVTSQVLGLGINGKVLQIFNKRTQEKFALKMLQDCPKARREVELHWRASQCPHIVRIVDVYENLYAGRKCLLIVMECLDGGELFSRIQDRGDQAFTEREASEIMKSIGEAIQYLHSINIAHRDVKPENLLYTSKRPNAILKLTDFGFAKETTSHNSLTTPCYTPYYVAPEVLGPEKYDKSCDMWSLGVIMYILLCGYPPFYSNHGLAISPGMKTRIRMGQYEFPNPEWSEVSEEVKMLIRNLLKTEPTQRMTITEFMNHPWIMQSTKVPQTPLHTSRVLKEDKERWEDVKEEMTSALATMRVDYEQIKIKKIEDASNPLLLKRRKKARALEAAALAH
# Sequence of UniProt P06493 (whole entry, looked up): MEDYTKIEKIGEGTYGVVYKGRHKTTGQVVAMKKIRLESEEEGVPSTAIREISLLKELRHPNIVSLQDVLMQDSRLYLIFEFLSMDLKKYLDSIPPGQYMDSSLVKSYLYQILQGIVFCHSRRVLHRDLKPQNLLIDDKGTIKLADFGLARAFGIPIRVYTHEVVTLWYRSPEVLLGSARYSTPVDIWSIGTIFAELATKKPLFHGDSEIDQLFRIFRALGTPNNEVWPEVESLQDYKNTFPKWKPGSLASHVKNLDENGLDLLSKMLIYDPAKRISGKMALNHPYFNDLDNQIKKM
# Sequence of UniProt P51956 (whole entry, looked up): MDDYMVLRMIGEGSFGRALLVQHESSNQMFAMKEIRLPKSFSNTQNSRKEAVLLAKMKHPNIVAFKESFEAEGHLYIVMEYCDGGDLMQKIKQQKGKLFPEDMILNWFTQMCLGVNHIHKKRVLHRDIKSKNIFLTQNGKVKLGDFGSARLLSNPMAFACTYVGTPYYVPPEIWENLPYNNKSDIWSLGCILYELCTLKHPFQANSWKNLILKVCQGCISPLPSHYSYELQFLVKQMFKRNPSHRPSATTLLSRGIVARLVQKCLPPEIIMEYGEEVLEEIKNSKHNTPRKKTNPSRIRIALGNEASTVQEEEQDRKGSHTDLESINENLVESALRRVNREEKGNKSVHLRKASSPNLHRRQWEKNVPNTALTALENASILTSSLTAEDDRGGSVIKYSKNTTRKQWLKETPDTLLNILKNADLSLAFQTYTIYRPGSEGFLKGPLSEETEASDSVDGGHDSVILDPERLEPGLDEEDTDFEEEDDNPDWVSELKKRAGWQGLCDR
# Sequence of UniProt O14965 (whole entry, looked up): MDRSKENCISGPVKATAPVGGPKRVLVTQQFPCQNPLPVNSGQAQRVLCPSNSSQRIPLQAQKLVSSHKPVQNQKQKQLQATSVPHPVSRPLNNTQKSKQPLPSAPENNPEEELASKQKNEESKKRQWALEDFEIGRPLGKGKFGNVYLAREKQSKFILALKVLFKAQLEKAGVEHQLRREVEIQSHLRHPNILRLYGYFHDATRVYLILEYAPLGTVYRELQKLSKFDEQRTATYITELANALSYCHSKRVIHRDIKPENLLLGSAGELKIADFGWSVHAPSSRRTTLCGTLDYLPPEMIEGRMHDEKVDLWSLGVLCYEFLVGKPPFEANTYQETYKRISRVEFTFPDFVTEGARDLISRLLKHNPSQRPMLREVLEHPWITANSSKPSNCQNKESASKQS
# Sequence of UniProt Q8N4C8 (whole entry, looked up): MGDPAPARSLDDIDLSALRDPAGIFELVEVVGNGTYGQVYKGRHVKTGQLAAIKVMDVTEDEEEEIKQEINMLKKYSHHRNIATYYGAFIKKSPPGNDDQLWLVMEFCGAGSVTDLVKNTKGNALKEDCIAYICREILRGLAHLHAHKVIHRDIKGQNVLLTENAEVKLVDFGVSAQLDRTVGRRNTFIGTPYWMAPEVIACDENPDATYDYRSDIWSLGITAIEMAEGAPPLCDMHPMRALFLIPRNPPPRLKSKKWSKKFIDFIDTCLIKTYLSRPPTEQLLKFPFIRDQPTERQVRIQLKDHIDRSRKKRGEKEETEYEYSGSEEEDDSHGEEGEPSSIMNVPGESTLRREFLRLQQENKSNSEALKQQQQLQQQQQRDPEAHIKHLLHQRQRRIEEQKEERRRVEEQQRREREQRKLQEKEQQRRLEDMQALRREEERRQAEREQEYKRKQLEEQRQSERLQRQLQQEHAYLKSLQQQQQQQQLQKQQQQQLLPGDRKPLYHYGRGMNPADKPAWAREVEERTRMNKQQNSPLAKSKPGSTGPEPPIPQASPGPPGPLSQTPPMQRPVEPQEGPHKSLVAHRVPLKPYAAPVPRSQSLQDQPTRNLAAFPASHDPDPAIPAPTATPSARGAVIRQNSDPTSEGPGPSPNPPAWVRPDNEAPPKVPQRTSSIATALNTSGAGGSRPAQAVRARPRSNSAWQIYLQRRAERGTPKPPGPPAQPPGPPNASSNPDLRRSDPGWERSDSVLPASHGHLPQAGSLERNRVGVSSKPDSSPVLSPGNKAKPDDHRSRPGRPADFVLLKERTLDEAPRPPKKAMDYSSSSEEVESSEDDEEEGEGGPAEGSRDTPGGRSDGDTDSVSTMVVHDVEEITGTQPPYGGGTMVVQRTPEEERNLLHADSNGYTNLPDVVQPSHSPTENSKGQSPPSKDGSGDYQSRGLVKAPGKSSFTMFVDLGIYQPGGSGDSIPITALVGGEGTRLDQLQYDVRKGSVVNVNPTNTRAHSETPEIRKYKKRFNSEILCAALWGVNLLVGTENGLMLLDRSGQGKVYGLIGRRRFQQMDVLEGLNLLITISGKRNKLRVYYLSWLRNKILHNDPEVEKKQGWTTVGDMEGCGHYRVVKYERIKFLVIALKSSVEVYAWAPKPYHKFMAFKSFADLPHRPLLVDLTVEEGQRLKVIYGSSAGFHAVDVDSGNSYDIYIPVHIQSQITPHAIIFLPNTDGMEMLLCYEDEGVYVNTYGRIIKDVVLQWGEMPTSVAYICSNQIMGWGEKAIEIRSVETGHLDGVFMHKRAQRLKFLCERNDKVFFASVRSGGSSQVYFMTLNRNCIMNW
# Sequence of UniProt Q13464 (whole entry, looked up): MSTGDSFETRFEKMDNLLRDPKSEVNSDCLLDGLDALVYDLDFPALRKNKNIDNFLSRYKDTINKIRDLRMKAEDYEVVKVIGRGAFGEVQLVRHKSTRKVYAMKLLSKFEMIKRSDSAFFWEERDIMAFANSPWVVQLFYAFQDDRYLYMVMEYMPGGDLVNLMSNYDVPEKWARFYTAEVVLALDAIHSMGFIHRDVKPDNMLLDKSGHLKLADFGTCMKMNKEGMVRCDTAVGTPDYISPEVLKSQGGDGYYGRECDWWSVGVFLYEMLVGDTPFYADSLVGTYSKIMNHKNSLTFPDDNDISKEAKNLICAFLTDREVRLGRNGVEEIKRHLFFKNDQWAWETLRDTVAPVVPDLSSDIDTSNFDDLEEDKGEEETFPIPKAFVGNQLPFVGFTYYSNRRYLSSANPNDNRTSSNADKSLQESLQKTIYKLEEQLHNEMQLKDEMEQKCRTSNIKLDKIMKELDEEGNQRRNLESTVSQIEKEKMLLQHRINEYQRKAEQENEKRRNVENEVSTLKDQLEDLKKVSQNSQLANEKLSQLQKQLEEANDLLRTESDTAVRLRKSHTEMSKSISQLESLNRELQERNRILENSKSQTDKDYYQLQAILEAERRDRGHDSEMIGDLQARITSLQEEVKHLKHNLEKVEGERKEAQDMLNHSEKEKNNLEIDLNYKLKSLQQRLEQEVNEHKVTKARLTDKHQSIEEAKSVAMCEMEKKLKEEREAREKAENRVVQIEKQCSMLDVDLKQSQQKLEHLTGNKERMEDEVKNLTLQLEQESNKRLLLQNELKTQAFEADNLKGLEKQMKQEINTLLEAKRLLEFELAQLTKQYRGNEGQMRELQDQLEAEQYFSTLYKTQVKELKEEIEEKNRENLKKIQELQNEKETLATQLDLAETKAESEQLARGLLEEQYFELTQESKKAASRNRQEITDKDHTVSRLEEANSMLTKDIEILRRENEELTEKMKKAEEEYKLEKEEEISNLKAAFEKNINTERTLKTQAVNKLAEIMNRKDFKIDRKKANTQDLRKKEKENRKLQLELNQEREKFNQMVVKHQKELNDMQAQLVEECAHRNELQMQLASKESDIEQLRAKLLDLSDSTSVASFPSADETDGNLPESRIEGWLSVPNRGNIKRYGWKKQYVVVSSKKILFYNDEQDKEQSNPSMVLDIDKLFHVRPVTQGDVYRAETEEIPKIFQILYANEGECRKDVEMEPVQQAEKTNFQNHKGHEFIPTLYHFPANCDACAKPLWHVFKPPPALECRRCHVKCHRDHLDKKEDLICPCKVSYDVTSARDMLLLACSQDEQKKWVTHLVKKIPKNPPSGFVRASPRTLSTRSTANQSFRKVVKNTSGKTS
# Sequence of UniProt Q16539 (whole entry, looked up): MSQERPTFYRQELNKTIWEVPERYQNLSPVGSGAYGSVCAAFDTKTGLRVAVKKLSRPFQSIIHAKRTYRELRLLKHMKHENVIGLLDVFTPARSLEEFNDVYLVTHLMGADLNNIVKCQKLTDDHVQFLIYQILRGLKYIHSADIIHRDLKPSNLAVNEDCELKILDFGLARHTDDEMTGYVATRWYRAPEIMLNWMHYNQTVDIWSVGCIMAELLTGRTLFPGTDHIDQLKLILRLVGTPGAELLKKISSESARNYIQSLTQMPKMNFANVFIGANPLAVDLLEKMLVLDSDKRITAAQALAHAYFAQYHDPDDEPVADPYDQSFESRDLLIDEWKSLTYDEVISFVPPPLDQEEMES
# Sequence of UniProt P28482 (whole entry, looked up): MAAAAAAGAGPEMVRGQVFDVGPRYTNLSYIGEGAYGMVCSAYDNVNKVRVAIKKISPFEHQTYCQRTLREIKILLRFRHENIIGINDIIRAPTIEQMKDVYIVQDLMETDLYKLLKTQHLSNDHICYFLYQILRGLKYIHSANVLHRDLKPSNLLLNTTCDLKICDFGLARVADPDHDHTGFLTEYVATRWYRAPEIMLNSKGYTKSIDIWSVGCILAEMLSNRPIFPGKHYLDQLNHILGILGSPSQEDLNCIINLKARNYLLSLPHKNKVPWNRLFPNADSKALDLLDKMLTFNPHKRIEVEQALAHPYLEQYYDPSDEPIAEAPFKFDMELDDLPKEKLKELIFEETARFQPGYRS

# Block 1
# SMILES: CCN(CC)CCNC(=O)c1c(C)[nH]c(/C=C2\C(=O)Nc3ccc(Cl)cc32)c1C
# Observed: enzyme activity
# Mode: inhibitor
# Concentration: 0.5 µM
# Reference: control
target,remaining activity [%]
"Cyclin-dependent kinase 1, with cyclin A (CDK1, Homo sapiens, UniProt P06493)",87.5
"Serine/threonine-protein kinase PLK3 (PLK3, Homo sapiens, UniProt Q9H4B4)",89.8
"Misshapen-like kinase 1 (MINK1, Homo sapiens, UniProt Q8N4C8)",4.4
"Mitogen-activated protein kinase 1 (MAPK1, Homo sapiens, UniProt P28482)",97.1
"Dual specificity mitogen-activated protein kinase kinase 1 (MAP2K1, Homo sapiens, UniProt Q02750)",33.1
"RAC-beta serine/threonine-protein kinase (AKT2, Homo sapiens, UniProt P31751)",86.9
"Serine/threonine-protein kinase tousled-like 2 (TLK2, Homo sapiens, UniProt Q86UE8)",79.6
"Rho-associated protein kinase 1 (ROCK1, Homo sapiens, UniProt Q13464)",89.7
"Discoidin domain-containing receptor 2 (DDR2, Homo sapiens, UniProt Q16832)",104
"Serine/threonine-protein kinase Nek3 (NEK3, Homo sapiens, UniProt P51956)",94
"Dual specificity protein kinase CLK3 (CLK3, Homo sapiens, UniProt P49761)",101
"Mitogen-activated protein kinase 14 (MAPK14, Homo sapiens, UniProt Q16539)",103
"Vascular endothelial growth factor receptor 2 (KDR, Homo sapiens, UniProt P35968)",13.8

# Block 2
# Organism: Plasmodium berghei
# Mode: inhibitor
# Cells: Huh-7
# Strain: liver stage
# Concentration: 10 µM
# Time: 24 h
# Reference: untreated control
SMILES,infection rate
S=c1[nH]cnc2nc[nH]c12,63.2%
CC[C@@H](Cc1c(I)cc(I)c(N)c1I)C(=O)O,86%
O=C(O)c1ccccc1Nc1cccc(C(F)(F)F)c1,94.3%
COc1ccccc1OCC(O)CO (stereo not shown),77%
CC(C)OC(=O)C(C)(C)Oc1ccc(C(=O)c2ccc(Cl)cc2)cc1,105%
C[C@](N)(Cc1ccc(O)c(O)c1)C(=O)O,85.1%
O=C(O)c1ccc(S(=O)(=O)N(Cl)Cl)cc1,95.8%
CCN(CC)CCNC(=O)COc1ccc(OC)cc1,117%

# Block 3
# Cell line: mouse MPNST tumor cells
# Technique: high-content nuclear imaging
# Measured: cell number
# Concentration: 10 µM
# Time: 12 h
# Notes: mean of 2 replicates
# Reference: plate mean
# Direction: higher = more cells
Compound,nuclei count
CCCCNNC(=O)c1ccc(Br)cc1,1.26 z-score
S=C(NCCCc1cnc[nH]1)NCCCN(Cc1ccc(Cl)c(Cl)c1)c1ccc(Br)cn1,-6.11 z-score
CCC(=O)NC1CCc2cccc(OC)c2C1 (stereo not shown),0.0599 z-score
Nc1nnc(Sc2ncc([N+](=O)[O-])s2)s1,-0.808 z-score
CC[N+](C)(CC)CCOC(=O)C1c2ccccc2Oc2ccccc21,0.751 z-score
CC(C(=O)O)c1ccc(N2Cc3ccccc3C2=O)cc1 (stereo not shown),-0.438 z-score
CCN(CCCc1ccccc1)CCCc1ccccc1,2.81 z-score
CCN(C(=O)c1ccccc1OC)c1cc2c(cc1N1CCNCC1C)n(C)c(=O)n2C (stereo not shown),0.417 z-score

# Block 4
# Compound: O=C(NC[C@@H]1[C@H]2CN(C(=O)OCc3cc(C(F)(F)F)cc(C(F)(F)F)c3)C[C@@H]12)c1ccc2[nH]nnc2c1
# Observed: cell-free assay
# Technique: competition with immobilised ligand
# Concentration: 1 µM
target,remaining binding [%]
"MAP kinase-activated protein kinase 2 (MAPKAPK2, Homo sapiens, UniProt P49137)",100
"Serine/threonine-protein kinase PAK 1 (PAK1, Homo sapiens, UniProt Q13153)",100
"Proto-oncogene tyrosine-protein kinase receptor Ret (RET, Homo sapiens, UniProt P07949, M918T)",100
"Aurora kinase A (AURKA, Homo sapiens, UniProt O14965)",93
"MAP kinase-interacting serine/threonine-protein kinase 1 (MKNK1, Homo sapiens, UniProt Q9BUB5)",90
"Tyrosine-protein kinase ABL2 (ABL2, Homo sapiens, UniProt P42684)",98
"Tyrosine-protein kinase ABL1, phosphorylated (ABL1, Homo sapiens, UniProt P00519, Y253F)",95
"Cyclin-dependent kinase 4, with cyclin D3 (CDK4, Homo sapiens, UniProt P11802)",97
